Published values from different studies.
Lines come from different studies, so protocols differ. Numbers after ± are the reported error. Values after ≈ are worked out from the molar mass of the structure shown.
Sequence of UniProt P21729 (whole entry, looked up): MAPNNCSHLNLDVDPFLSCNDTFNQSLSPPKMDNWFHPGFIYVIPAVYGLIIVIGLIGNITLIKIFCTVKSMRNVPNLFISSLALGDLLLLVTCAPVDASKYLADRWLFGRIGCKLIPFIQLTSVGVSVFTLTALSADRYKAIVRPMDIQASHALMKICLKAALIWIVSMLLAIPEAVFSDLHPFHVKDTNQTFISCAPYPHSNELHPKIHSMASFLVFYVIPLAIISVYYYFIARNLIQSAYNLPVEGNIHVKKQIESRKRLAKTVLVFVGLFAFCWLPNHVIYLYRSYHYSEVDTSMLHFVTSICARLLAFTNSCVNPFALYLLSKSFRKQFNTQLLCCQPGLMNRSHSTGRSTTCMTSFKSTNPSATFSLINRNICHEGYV

Compound | target or system | assay | test system | conditions | quantity | result
Fc1ccc(F)c(-c2ccc(Cn3ccnc3)c(F)c2)c1 | Mycobacterium tuberculosis variant bovis BCG | microbial growth | BCG |  | MIC50 | 1 µg/mL (≈ 3.47 µM)
Cc1ccc2nc(C(F)(F)F)c(C(=O)NCc3cccc(Cl)c3)n2c1 | Mycobacterium tuberculosis variant bovis BCG | microbial growth | THP-1, BCG | intracellular | MIC | > 10 µM
Cc1cn(C2CC(N(C)C)C(CO)O2)c(=O)[nH]c1=O (stereo not shown) | vesicular stomatitis virus | viral replication | HEL |  | EC50 | > 0.37 µM
Cc1cccc(F)c1NC(=O)CN1CCCC2=CC3CC(CN4CCCCC34)C21 (stereo not shown) | vesicular stomatitis virus | pseudovirus entry |  | VSV G pseudovirus | EC50 | > 267 µM
c1cc2c(s1)CCOC21CCN(Cc2ccc3c(c2)OCCO3)CC1 | Mycobacterium tuberculosis variant bovis BCG | microbial growth | THP-1, BCG | intracellular | MIC | 0.4 µM (≈ 0.143 µg/mL)
CCC(=C(c1ccc(Cl)cc1)c1ccc(OCCN(CC)CC)cc1)c1ccc(OC)cc1 | influenza A virus H1N1 | cytopathic effect, visual CPE | MDCK |  | EC50 | > 3.2 µg/mL
CCCC(=O)NCC(=O)N[C@@H](CC(C)C)C(=O)N[C@@H](CC(C)C)C(=O)N[C@@H](CCCCN)C(=O)N[C@@H](CCCNC(=N)N)C(=O)N[C@H](C(=O)N[C@@H](CCCCN)C(=O)N[C@H](C(=O)N[C@@H](CC(C)C)C(=O)N[C@@H](CC(C)C)C(=O)NCCCC[C@H](NC(=O)[C@H](CC(C)C)NC(=O)[C@H](CC(C)C)NC(=O)[C@@H](NC(=O)[C@H](CCCCN)NC(=O)[C@@H](NC(=O)[C@H](CCCNC(=N)N)NC(=O)[C@H](CCCCN)NC(=O)[C@H](CC(C)C)NC(=O)[C@H](CC(C)C)NC(=O)CNC(=O)CCC)[C@@H](C)CC)[C@@H](C)O)C(=O)NCCCC[C@H](NC(=O)[C@H](CCCCNC(=O)[C@H](CC(C)C)NC(=O)[C@H](CC(C)C)NC(=O)[C@@H](NC(=O)[C@H](CCCCN)NC(=O)[C@@H](NC(=O)[C@H](CCCNC(=N)N)NC(=O)[C@H](CCCCN)NC(=O)[C@H](CC(C)C)NC(=O)[C@H](CC(C)C)NC(=O)CNC(=O)CCC)[C@@H](C)CC)[C@@H](C)O)NC(=O)[C@H](CC(C)C)NC(=O)[C@H](CC(C)C)NC(=O)[C@@H](NC(=O)[C@H](CCCCN)NC(=O)[C@@H](NC(=O)[C@H](CCCNC(=N)N)NC(=O)[C@H](CCCCN)NC(=O)[C@H](CC(C)C)NC(=O)[C@H](CC(C)C)NC(=O)CNC(=O)CCC)[C@@H](C)CC)[C@@H](C)O)C(N)=O)[C@@H](C)O)[C@@H](C)CC | five bacterial species | bacterial growth |  |  | geometric mean MIC | 13.9 µM
COc1ccc(CNc2nc(N3CCC[C@H]3CO)ncc2C(=O)NN)cc1Cl | Salmonella typhimurium |  | TA1535 | 500 µg/plate, 48 h | revertant count | 41 ± 6
COc1ccc2nc(C)cc(OCC(=O)Nc3cc(C)cc(C)c3)c2c1 | Mycobacterium tuberculosis variant bovis BCG | microbial growth | BCG |  | MIC | 0.5 µM (≈ 0.175 µg/mL)
CCC(=C(c1ccc(Cl)cc1)c1ccc(OCCN2CCCCC2)cc1)c1ccccc1 | influenza A virus H1N1 | cytopathic effect, visual CPE | MDCK |  | EC50 | > 2.8 µg/mL
[Cl-].[Cl-].[Mn+2].c1ccc(CN2CCCNCCN(Cc3ccccc3)CCCNCC2)cc1 | Leishmania donovani | parasite growth, resazurin |  | 72 h, amastigote | IC90 | > 19 µM
CC[C@H](C)[C@H](NC(=O)[C@@H](N)CCCNC(=N)N)C(=O)N[C@@H](CC(N)=O)C(=O)N[C@@H](CC(N)=O)C(=O)N[C@H](C(=O)N1C[C@@H](n2cc(C3=CC=C[CH]3[Fe][CH]3C=CC=C3)nn2)C[C@H]1C(=O)N[C@@H](Cc1c[nH]c2ccccc12)C(=O)N[C@@H](CO)C(=O)N[C@@H](CCC(=O)O)C(=O)N[C@@H](C)C(=O)N[C@@H](CCSC)C(=O)N[C@@H](CCSC)C(=O)NCCC(=O)N[C@@H](CCC(N)=O)C(=O)NCCC(=O)N[C@@H](CS)C(N)=O)[C@@H](C)CC (stereo partly shown) | VSV-G pseudotyped virus |  |  | concentration not given | p24 release | no effect
O=C(NC12CC3CC(CC(C3)C1)C2)N1CCCC2=CC3CC(CN4CCCCC34)C21 (stereo not shown) | vesicular stomatitis virus | pseudovirus entry |  | VSV G pseudovirus | EC50 | 107 µM
CC[C@H](C)[C@H](NC(=O)[C@H](CCCNC(=N)N)NC(=O)[C@H](CCCCN)NC(=O)[C@H](CC(C)C)NC(=O)[C@H](CC(C)C)NC(=O)CN)C(=O)N[C@@H](CCCCN)C(=O)N[C@H](C(=O)N[C@@H](CC(C)C)C(=O)N[C@@H](CC(C)C)C(=O)NCCCC[C@H](NC(=O)[C@H](CCCCNC(=O)[C@H](CC(C)C)NC(=O)[C@H](CC(C)C)NC(=O)[C@@H](NC(=O)[C@H](CCCCN)NC(=O)[C@@H](NC(=O)[C@H](CCCNC(=N)N)NC(=O)[C@H](CCCCN)NC(=O)[C@H](CC(C)C)NC(=O)[C@H](CC(C)C)NC(=O)CN)[C@@H](C)CC)[C@@H](C)O)NC(=O)[C@H](CC(C)C)NC(=O)[C@H](CC(C)C)NC(=O)[C@@H](NC(=O)[C@H](CCCCN)NC(=O)[C@@H](NC(=O)[C@H](CCCNC(=N)N)NC(=O)[C@H](CCCCN)NC(=O)[C@H](CC(C)C)NC(=O)[C@H](CC(C)C)NC(=O)CN)[C@@H](C)CC)[C@@H](C)O)C(N)=O)[C@@H](C)O | five bacterial species | bacterial growth |  |  | geometric mean MIC | 4.59 µM
CCC(=C(c1ccc(Cl)cc1)c1ccc(OCCN(C)C)cc1)c1ccc(Cl)cc1 | influenza A virus H1N1 | cytopathic effect, visual CPE | MDCK |  | EC50 | 0.72 µg/mL
Cc1cc(Oc2nc(N3CC[C@@H](c4ccncc4)C3)ncc2F)[nH]n1 | Mycobacterium tuberculosis | microbial growth | H37RV |  | MIC90 | 0.0086 µM (≈ 0.00293 µg/mL)
CCC(=C(c1ccc(Cl)cc1)c1ccc(OCCN(CC)CC)cc1)c1ccc(Cl)cc1 | influenza A virus H1N1 | cytopathic effect, visual CPE | MDCK |  | EC50 | > 12 µg/mL

Compound | target or system | assay | test system | conditions | quantity | result
COc1ccc2nc(C)cc(OCC(=O)Nc3ccccc3OC)c2c1 | Moraxella catarrhalis | microbial growth, broth dilution | 1502 |  | MIC | 32 µM (≈ 11.3 µg/mL)
CCC(=C(c1ccc(Cl)cc1)c1ccc(OCCN2CCOCC2)cc1)c1ccc(OC)cc1 | influenza A virus H1N1 | cytopathic effect, visual CPE | MDCK |  | EC50 | > 7.5 µg/mL
c1cn(Cc2ccc(-c3ccc4occc4c3)cc2)cn1 | Mycobacterium tuberculosis variant bovis BCG | microbial growth | BCG |  | MIC50 | 0.9 µg/mL (≈ 3.28 µM)
CCc1ccc([C@@H]2C[C@H](C(F)(F)F)n3ncc(C(=O)NCc4ccc(OC)cc4)c3N2)cc1 | Mycobacterium tuberculosis variant bovis BCG | microbial growth | THP-1, BCG | intracellular | MIC | 0.5 µM (≈ 0.229 µg/mL)
FC(F)(F)c1ccc(-c2ccc(Cn3ccnc3)cc2)cc1 | Mycobacterium tuberculosis variant bovis BCG | microbial growth | BCG |  | MIC50 | 0.8 µg/mL (≈ 2.65 µM)
CC(=C(c1ccc(Cl)cc1)c1ccc(OCCN(C)C)cc1)c1ccc(Cl)cc1 | influenza A virus H1N1 | cytopathic effect, visual CPE | MDCK |  | EC50 | > 0.56 µg/mL
C[C@@](O)(C(F)F)[C@H](NC(=O)c1ccc(C#CC#CC2CC2)cc1)C(=O)NO | Yersinia |  |  |  | MIC50 | 0.064 µg/mL (≈ 0.17 µM)
Cc1nc([C@H](NC(=O)c2ccc(-c3ccc(Cl)cc3)[nH]2)[C@H]2CCCCN2)sc1CO | vesicular stomatitis virus | viral entry | VSV-G pseudovirus |  | IC50 | 6.4 ± 0.5 µM
COc1ccc(CC(C)=C(c2ccc(Cl)cc2)c2ccc(OCCN3CCCCCC3)cc2)cc1 | influenza A virus H1N1 | cytopathic effect, visual CPE | MDCK |  | EC50 | > 3.7 µg/mL
COc1ccc(CCNc2cc(-c3ccccc3)nc3ncnn23)cc1 | Mycobacterium tuberculosis variant bovis BCG | microbial growth | THP-1, BCG | intracellular | MIC | > 10 µM
O=C(c1cc(Cl)cc(Cl)c1)N1CCCC2=CC3CC(CN4CCCCC34)C21 (stereo not shown) | vesicular stomatitis virus | pseudovirus entry |  | VSV G pseudovirus | EC50 | 79.2 µM
Cc1cccc(-c2nc(Nc3ccncn3)c3c(C)csc3n2)n1 | Mycobacterium tuberculosis variant bovis BCG | microbial growth | THP-1, BCG | intracellular | MIC | > 10 µM
CCCNC(=O)[C@H](CC(C)C)NC(=O)[C@H](Cc1c[nH]cn1)NC(=O)CNC(=O)[C@@H](NC(=O)[C@H](C)NC(=O)[C@H](Cc1c[nH]c2ccccc12)NC(=O)[C@H](CCC(N)=O)NC(=O)[C@@H](Cc1ccccc1)NC(=O)CCCCCNC(=O)CN1CCN(CC(=O)O)CCN(CC(=O)O)CCN(CC(=O)O)CC1)C(C)C [indium-111 labelled] | Gastrin-releasing peptide receptor (Mus musculus, UniProt P21729) | biodistribution | CF-1 mice, heart | intravenous, 1 h, unblocked | tissue uptake | 0.09 ± 0.04 %ID/g
O=C(c1ccc(Cl)c(Cl)c1)N1CCCC2=CC3CC(CN4CCCCC34)C21 (stereo not shown) | vesicular stomatitis virus | pseudovirus entry |  | VSV G pseudovirus | EC50 | 48.7 µM
CC[C@H](C)[C@H](NC(=O)[C@H](CCCNC(=N)N)NC(=O)[C@H](CCCCN)NC(=O)[C@H](CC(C)C)NC(=O)[C@H](CC(C)C)NC(=O)CN)C(=O)N[C@@H](CCCCN)C(=O)N[C@H](C(=O)N[C@@H](CC(C)C)C(=O)N[C@@H](CC(C)C)C(=O)NCCCC[C@H](NC(=O)[C@H](CC(C)C)NC(=O)[C@H](CC(C)C)NC(=O)[C@@H](NC(=O)[C@H](CCCCN)NC(=O)[C@@H](NC(=O)[C@H](CCCNC(=N)N)NC(=O)[C@H](CCCCN)NC(=O)[C@H](CC(C)C)NC(=O)[C@H](CC(C)C)NC(=O)CN)[C@@H](C)CC)[C@@H](C)O)C(=O)NCCCC[C@H](NC(=O)[C@H](CCCCNC(=O)[C@H](CC(C)C)NC(=O)[C@H](CC(C)C)NC(=O)[C@@H](NC(=O)[C@H](CCCCN)NC(=O)[C@@H](NC(=O)[C@H](CCCNC(=N)N)NC(=O)[C@H](CCCCN)NC(=O)[C@H](CC(C)C)NC(=O)[C@H](CC(C)C)NC(=O)CN)[C@@H](C)CC)[C@@H](C)O)NC(=O)[C@H](CC(C)C)NC(=O)[C@H](CC(C)C)NC(=O)[C@@H](NC(=O)[C@H](CCCCN)NC(=O)[C@@H](NC(=O)[C@H](CCCNC(=N)N)NC(=O)[C@H](CCCCN)NC(=O)[C@H](CC(C)C)NC(=O)[C@H](CC(C)C)NC(=O)CN)[C@@H](C)CC)[C@@H](C)O)C(N)=O)[C@@H](C)O | five bacterial species | bacterial growth |  |  | geometric mean MIC | 9.19 µM
Cc1cccc(-c2nc(Nc3ccncn3)c3sccc3n2)n1 | Moraxella catarrhalis | microbial growth, broth dilution | 1502 |  | MIC | 1 µM (≈ 0.32 µg/mL)
CN[C@](C)(C[18F])C(=O)O | SK-OV-3 tumour model |  | host not given, tumour | 30 min, tumour-bearing | tracer uptake | 14.1 %ID/g

Excerpt of the above:
Compound | target or system | assay | test system | conditions | quantity | result
Cc1cccc(F)c1NC(=O)CN1CCCC2=CC3CC(CN4CCCCC34)C21 (stereo not shown) | vesicular stomatitis virus | pseudovirus entry |  | VSV G pseudovirus | EC50 | > 267 µM
O=C(c1cc(Cl)cc(Cl)c1)N1CCCC2=CC3CC(CN4CCCCC34)C21 (stereo not shown) | vesicular stomatitis virus | pseudovirus entry |  | VSV G pseudovirus | EC50 | 79.2 µM
